Experimental data from different studies.
A part holds a random share of what one study measured.

Set 1
Target: Histone acetyltransferase KAT6A, winged helix 1, GST fusion (KAT6A, Homo sapiens, UniProt Q92794, residues 1-85)
Technique: protein binding microarray
Form: double-stranded DNA, one strand shown
Medium: in vitro
Tested at: not given
Setting: 8-mer, flanks averaged, mean of 2 arrays, mostly near background
Baseline: not given
Direction: higher = stronger binding
Residues (chain): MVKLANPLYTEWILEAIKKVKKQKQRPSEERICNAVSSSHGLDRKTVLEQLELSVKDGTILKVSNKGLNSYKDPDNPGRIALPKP
Strand	E-score
AATTAATC	-0.0184
CTACGGCC	0.291
CCACGACA	-0.049
CGTTAGTA	-0.0175
AGGAGATG	-0.145
CGCACAGC	0.367
ACCTTTCA	-0.162
GAAGTGGC	-0.2
AGTTCGTG	-0.21
ATCTGCGG	0.223
AGCCCAAG	-0.0993
GATTTAGA	-0.182
ATCAGCGC	0.263
GGCAGATA	0.0897
CGAAGGCG	0.259
ACCATTCA	-0.128
AGCTAACC	-0.131
AGTAAACG	0.0735
ACCCAGGT	-0.0979
ACCTACAA	-0.124
AACATCTC	-0.0136
ACTGGTAG	-0.227
GGTCACAA	-0.0661
AACTGTCC	-0.179
ATCATCGG	0.0851

Set 2
Target: PABPC1L2, full length, GST fusion (mouse, UniProt A0ABA7IW68)
Technique: RNAcompete
Form: RNA
Medium: in vitro
Tested at: 20 nM
Setting: 7-mer, probes averaged, single round
Baseline: mean of 7-mers
Direction: higher = stronger binding
Target sequence (chain): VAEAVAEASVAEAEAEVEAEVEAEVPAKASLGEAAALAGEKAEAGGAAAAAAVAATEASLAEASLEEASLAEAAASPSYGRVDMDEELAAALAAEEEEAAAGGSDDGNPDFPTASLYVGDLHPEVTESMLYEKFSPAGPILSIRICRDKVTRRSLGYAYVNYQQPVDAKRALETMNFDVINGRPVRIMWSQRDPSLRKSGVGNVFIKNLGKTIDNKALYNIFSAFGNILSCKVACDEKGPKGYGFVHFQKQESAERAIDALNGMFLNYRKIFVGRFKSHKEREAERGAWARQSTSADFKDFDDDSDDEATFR
Strand	7-mer Z-score
CUAUUAU	-0.233
UCAAGGG	0.135
GGCUGGU	0.0986
UUGCUGG	-0.222
GGGGUAU	0.122
ACCGUAU	-0.141
CUCAGAU	-0.0645
UAGUUAG	-0.168
UCUACCG	-0.351
AGAAGAC	0.133
CGGCCGG	-0.222
UGUAGGG	0.231
ACUACGG	-0.0536
GCCACGA	-0.0663
AUCGACC	-0.0917
CUAGCCC	-0.235
GGGACGA	0.372
AACGAAC	0.273
CUUCCUC	-0.47

Set 3
Target: Interferon regulatory factor 5, full length, phosphomimetic (IRF5, Homo sapiens, UniProt Q13568-2, residues 1-514, S451D/S453D/S456D/S462D)
Technique: protein-binding microarray
Form: double-stranded DNA, one strand shown
Medium: in vitro
Tested at: 940 nM top
Setting: 60-bp whole probe
With: salmon DNA 0.4 mg/ml
Baseline: random background probes
Direction: higher = stronger binding
All sequences stand within: GCCTAGCAC … GTCTTGATTCGCTTGACGCTGCTG
Strand	fitted relative affinity
TTAAGTTTCCTTTCCCTTTAGTGCTAG	2.48 z-score
GACGATCTCAGCATCGAGACGTGCTAG	-0.309 z-score
TCACATATACACATCTTACTGTGCTAG	0.922 z-score
TTAGGTATCTGACTGGGTTAGTGCTAG	0.578 z-score
TCATAATTCTTTGCTCATACTGTGCTA	0.87 z-score
TTAGGCCTGGGGTATCGGTTAGTGCTA	2.32 z-score
TTAGGACTGGGGTATCGGTAAGTGCTA	1.85 z-score
TTAGGTATCGGTATCGGTTCGTGCTAG	10.5 z-score
GACGGTTTCGTTTTCGGGACGTGCTAG	8.35 z-score
TCAACTCTAATATTGAGACTGTGCTAG	0.00624 z-score
TTAGGACTGGGTTTCGGTTGGTGCTAG	6.52 z-score
TACGATATCAGTCTCGAGACGTGCTAG	1.67 z-score
TCAGCTTTTTTTCCGAGACTGTGCTAG	1.24 z-score
ACAAAGATTTTTATCAAATGGTGCTAG	0.325 z-score
ATAGGACTGGGGTATCGGTTAGTGCTA	2.46 z-score
GACGTACTGGGGTATCGAGACGTGCTA	0.83 z-score
AGGACTCTGGAGGTTGAGAAAGTGCTA	-0.651 z-score
GTTCTTTTCAGTCCCCTCTTGTGCTAG	1.17 z-score
GAGTTCCTCTCTAGGCACTGGTGCTAG	0.519 z-score
TTTGGTTTCGGTTCCGGTTAGTGCTAG	19.3 z-score
TCCCTTTTCATGCTCTTATAGTGCTAG	1.85 z-score

Set 4
Target: Centromere-binding protein 1, full length, His-tagged (CBF1, Saccharomyces cerevisiae, UniProt P17106, residues 1-351)
Chain of UniProt P17106 (whole entry, looked up): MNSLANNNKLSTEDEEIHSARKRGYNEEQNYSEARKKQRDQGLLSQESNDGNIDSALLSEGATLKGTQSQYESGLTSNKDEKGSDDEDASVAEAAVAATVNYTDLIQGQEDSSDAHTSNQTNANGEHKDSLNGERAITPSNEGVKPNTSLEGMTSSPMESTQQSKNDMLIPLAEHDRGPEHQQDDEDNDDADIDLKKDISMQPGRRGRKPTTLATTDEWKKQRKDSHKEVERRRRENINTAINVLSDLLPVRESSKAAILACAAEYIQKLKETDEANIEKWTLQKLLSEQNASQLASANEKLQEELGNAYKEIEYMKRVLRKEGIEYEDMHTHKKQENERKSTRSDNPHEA
Technique: competition protein-binding microarray
Form: double-stranded DNA, one strand shown
Medium: in vitro
Tested at: 2 µM
Setting: whole 60-bp probe, lowest competitor level
With: Pho4 competitor, 0.05 µM
Direction: higher = stronger binding
Strand	fluorescence intensity
CTGGGCCTCCAGCGCCACGTGCCGCCGCTGGCACTGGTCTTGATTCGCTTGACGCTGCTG	563 a.u.
GTACTGGCTGAGCCGGTCGTGCCGAAAATGAAAATAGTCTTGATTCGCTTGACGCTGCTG	81.2 a.u.
AAGTTCACTTGATGTGGCGTGATGGTCCTTTACCCGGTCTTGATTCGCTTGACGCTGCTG	108 a.u.
CTAACGAAGGTTTTTCACGTGAGGTACAAGCCAAGTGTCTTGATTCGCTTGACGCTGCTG	848 a.u.
CGGGGTTAAGTTTGGGACGTGGGTGGCTTGCAGCAGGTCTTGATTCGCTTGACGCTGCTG	53.9 a.u.
AATCTCGAGTAGGTGCACGTGGTACCTACCTCGAGAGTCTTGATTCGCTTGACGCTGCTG	1820 a.u.
GGCCAAAGTGTTCGTCACAAAACAGTGGTCCTATATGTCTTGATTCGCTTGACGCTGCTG	110 a.u.
GAGAACGCAGAGGACAACGTGGCCGTTGGGTTGATAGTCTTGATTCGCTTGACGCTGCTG	73 a.u.
TGCTAGAGCTCGTTCCACGTGGTTACACATCCGCCAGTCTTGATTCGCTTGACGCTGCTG	636 a.u.
ATAGCTGCACCAACGTCTCTAGTTAGATATAACGTAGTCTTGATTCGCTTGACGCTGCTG	85.3 a.u.
CACTACATAACCCGTCACGTTTCAAAAACGAGCCAAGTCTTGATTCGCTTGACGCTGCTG	555 a.u.
CATACCCAACCTTGTCACAATACTTAAGATATTTGTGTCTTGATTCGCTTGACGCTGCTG	97.6 a.u.
GCGCCGTTCTCCACAGCCGTGATGGCTAAAGTGGCGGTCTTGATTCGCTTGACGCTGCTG	67.5 a.u.
TACTGAATGCTACTGACCGTGACGGTCTATCAGGCTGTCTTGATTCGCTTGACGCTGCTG	61.6 a.u.
CATACCCAACCTTTTCACGTGTAGTAAGATATTTGTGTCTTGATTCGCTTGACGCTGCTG	730 a.u.
AAAGCGGTAATTTGAGCGGTGGGTGCAGATATCTATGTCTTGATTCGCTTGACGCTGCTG	83.3 a.u.
TGCCTCTGCGCTTTGCACGTTCAAAAGAAAAGCATAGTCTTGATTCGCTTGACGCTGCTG	91.7 a.u.
TATTGGGCTATTTAGCACGTGATGGTAAAGTATATTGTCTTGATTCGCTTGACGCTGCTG	5810 a.u.
CTTCTCTAGGTTATGTTCATGCCCTTGCTCATCAACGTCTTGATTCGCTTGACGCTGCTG	65.4 a.u.
CTTCTGTAAATTTGTTCGGTGGGTGGACGCGCCCCGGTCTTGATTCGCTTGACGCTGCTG	81.2 a.u.
GCCACATTGTATCAACGCGTGATGGACAAATGTTTGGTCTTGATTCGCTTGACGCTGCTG	355 a.u.

Set 5
Target: Sal-like protein 4, full length isoform B (SALL4, Homo sapiens, UniProt Q9UJQ4-2, residues 1-616)
Technique: universal PBM
Form: double-stranded DNA, one strand shown
Medium: in vitro
Tested at: not given
Setting: 8-mer, flanks averaged, mean of replicates
Direction: higher = stronger binding
Strand	E-score
GTGGGCCA	-0.0946
AATACCGA	0.135
ACTGCGGA	-0.201
CCAACGGG	-0.338
TAACGTTA	0.248
GGTACCAA	-0.172
CACACAAG	-0.00584
CATTAGAC	0.0524
ATACTATC	0.227
AATGTTTA	0.273
CTATTGAC	0.0662
GGTTCCTA	-0.0978
CACGCGGA	-0.117
ATAAGGTA	0.244
ACATCTGA	0.0674
AGAGTTAC	0.0475
CGATGTAA	0.105
ACCTTTTG	-0.119
AATTGGAT	0.25
GATAACTA	0.276
TAAGACTA	0.161
CCACGGAC	-0.274
CGGCTGAA	-0.133
ATGTCTCA	0.132
CCCGGAGG	-0.422

Repeated from above (set 1):
Strand	E-score
GATTTAGA	-0.182
AACATCTC	-0.0136
AGCTAACC	-0.131
AGTAAACG	0.0735
GAAGTGGC	-0.2
CGTTAGTA	-0.0175
AACTGTCC	-0.179
ATCAGCGC	0.263
GGCAGATA	0.0897
AATTAATC	-0.0184
CGCACAGC	0.367
ACCTTTCA	-0.162
ATCATCGG	0.0851
AGGAGATG	-0.145
ACCTACAA	-0.124
